Assay results gathered from unrelated publications.
Numbered parts are unrelated; each lists some results of a single study.
Chain of UniProt O75747 (whole entry, looked up): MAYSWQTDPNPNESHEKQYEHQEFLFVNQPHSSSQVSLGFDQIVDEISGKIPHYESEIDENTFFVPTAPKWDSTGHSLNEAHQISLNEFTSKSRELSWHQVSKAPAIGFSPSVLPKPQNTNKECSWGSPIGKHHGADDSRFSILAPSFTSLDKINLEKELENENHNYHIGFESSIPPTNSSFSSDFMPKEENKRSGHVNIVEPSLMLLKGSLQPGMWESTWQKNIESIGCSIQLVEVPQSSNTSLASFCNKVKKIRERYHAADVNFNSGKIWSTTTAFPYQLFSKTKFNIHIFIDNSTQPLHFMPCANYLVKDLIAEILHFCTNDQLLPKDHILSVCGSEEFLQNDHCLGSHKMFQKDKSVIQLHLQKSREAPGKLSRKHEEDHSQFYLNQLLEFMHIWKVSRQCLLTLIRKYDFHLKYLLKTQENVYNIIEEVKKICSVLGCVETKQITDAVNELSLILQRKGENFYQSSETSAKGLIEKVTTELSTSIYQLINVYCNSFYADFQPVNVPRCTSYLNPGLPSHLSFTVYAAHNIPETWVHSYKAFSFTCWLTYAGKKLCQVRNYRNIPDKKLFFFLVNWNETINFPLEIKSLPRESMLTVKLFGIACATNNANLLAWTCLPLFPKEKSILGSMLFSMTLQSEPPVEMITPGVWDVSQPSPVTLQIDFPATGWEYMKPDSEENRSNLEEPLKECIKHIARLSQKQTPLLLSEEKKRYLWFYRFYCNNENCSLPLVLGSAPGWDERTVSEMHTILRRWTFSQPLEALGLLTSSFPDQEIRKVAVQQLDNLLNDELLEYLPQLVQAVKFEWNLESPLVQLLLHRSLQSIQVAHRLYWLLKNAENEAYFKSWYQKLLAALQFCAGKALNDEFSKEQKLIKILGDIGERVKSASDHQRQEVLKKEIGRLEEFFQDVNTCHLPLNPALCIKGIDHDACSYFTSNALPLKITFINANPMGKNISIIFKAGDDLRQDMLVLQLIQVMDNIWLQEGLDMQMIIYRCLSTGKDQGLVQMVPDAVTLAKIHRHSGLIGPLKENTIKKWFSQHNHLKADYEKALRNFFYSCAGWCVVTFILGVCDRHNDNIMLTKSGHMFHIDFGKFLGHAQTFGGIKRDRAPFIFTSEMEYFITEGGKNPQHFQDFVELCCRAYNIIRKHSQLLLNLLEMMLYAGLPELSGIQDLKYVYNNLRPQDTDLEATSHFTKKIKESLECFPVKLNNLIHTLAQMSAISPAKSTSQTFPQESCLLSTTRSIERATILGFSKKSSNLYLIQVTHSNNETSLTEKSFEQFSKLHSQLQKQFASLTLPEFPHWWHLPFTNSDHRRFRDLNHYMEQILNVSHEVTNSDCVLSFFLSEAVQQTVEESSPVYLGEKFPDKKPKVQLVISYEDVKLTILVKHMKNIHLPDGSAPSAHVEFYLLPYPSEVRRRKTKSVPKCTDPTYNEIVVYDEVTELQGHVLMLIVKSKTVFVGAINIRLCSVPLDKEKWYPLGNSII
Chain of UniProt Q15835 (whole entry, looked up): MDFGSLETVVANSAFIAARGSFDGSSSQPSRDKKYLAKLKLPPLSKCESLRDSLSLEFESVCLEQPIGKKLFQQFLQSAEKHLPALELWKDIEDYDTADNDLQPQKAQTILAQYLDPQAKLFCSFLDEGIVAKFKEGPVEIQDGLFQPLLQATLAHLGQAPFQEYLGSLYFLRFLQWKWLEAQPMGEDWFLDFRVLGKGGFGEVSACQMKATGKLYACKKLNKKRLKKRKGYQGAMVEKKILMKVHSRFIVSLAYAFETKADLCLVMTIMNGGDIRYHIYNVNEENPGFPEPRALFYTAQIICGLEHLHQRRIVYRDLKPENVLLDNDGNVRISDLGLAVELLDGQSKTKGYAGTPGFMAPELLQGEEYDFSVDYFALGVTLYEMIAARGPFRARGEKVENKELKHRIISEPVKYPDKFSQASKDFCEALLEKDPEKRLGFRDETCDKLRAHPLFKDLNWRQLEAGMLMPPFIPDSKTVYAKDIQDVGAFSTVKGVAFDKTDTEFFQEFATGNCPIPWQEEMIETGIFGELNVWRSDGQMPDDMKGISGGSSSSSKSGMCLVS
Chain of UniProt P42336 (whole entry, unmodified, looked up): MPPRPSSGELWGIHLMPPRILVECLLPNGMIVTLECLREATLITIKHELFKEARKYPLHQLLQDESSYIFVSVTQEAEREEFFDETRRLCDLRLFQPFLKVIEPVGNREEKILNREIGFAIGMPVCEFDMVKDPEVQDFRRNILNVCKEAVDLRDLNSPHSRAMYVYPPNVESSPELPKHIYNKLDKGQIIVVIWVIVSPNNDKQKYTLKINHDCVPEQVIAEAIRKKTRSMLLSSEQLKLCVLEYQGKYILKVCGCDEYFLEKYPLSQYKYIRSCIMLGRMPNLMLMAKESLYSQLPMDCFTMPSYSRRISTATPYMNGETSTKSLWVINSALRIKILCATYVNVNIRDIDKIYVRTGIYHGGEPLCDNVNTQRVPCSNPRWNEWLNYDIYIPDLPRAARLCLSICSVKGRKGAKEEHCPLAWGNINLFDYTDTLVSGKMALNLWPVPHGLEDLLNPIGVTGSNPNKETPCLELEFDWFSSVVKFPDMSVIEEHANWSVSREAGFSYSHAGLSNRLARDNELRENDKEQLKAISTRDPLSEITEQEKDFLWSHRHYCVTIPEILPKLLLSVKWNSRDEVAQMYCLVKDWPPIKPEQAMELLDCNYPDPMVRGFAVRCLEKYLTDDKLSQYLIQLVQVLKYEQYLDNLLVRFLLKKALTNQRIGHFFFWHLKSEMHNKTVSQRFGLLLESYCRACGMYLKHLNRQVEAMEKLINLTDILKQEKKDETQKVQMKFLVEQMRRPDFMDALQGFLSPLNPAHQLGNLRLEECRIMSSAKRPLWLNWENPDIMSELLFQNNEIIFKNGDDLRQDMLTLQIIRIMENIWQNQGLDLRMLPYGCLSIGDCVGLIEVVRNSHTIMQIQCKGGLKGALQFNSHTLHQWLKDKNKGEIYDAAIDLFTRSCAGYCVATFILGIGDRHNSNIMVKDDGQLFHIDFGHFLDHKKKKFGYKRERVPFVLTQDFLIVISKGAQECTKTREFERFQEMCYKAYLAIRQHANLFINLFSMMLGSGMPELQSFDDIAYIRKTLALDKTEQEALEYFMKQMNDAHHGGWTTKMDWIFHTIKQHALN
Chain of UniProt Q9UK32 (whole entry, looked up): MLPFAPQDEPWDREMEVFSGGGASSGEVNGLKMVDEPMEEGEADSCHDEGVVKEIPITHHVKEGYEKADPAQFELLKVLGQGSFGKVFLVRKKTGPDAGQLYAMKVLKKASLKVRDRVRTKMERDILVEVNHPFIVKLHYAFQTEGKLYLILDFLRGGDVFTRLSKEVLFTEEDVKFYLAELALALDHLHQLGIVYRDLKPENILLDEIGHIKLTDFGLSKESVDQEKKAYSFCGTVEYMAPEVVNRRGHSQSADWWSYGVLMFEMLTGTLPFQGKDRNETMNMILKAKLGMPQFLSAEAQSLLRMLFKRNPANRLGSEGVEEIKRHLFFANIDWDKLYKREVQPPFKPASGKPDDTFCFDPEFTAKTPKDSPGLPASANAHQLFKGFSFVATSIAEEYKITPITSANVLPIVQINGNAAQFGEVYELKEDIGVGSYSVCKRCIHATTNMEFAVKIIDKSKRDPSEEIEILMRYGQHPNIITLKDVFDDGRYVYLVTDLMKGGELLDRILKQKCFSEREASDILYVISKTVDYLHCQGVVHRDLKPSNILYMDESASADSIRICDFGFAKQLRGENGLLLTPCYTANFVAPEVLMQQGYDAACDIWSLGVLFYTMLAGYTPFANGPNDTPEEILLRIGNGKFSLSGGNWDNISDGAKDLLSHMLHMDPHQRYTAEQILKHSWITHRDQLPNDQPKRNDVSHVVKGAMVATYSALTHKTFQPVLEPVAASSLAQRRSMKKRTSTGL
Chain of UniProt Q8NE63 (whole entry, looked up): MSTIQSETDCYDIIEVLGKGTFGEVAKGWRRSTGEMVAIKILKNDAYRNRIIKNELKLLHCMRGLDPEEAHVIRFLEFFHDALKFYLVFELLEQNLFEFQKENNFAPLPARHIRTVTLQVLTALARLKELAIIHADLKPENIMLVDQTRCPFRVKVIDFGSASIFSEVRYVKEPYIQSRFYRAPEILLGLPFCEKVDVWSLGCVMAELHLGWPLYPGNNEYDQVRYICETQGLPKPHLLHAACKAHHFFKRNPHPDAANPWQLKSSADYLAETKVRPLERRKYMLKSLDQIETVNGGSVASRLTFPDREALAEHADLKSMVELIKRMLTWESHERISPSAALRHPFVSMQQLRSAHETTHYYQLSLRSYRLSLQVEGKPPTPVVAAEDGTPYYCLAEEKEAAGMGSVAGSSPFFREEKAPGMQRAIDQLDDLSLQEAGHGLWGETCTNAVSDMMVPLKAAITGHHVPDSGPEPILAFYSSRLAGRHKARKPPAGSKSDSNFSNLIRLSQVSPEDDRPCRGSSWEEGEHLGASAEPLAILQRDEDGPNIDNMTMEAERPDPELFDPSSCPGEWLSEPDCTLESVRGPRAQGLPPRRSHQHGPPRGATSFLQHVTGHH

Series 1 — observed: enzyme activity; action: inhibitor; concentration: 0.5 µM; relative to: control; quantity: remaining activity
Target: Serine/threonine-protein kinase pim-3 (PIM3, Homo sapiens, UniProt Q86V86)
SMILES = O=C(O)c1ccc2c3c1cccc3c(=O)n1c3ccccc3nc21; result = 4.96%
SMILES = Cn1c2ccccc2c2c3c(c4c5ccccc5n(CCC#N)c4c21)CNC3=O; result = 17.3%
SMILES = Nc1ccc2ncnc(NCCc3ccc(Oc4ccccc4)cc3)c2c1; result = 104%
SMILES = CNC(=O)c1cc(Oc2ccc(NC(=O)Nc3ccc(Cl)c(C(F)(F)F)c3)cc2)ccn1; result = 100%
SMILES = CC(C)[C@H](CO)Nc1nc(Nc2cc(N)cc(Cl)c2)c2ncn(C(C)C)c2n1; result = 93%
SMILES = CN(C)c1ccc(C=C2C(=O)Nc3ccccc32)cc1; result = 102%
SMILES = CO[C@H]1C[C@@H]2CC[C@@H](C)[C@@](O)(O2)C(=O)C(=O)N2CCCC[C@H]2C(=O)O[C@H]([C@H](C)C[C@@H]2CC[C@@H](O)[C@H](OC)C2)CC(=O)[C@H](C)/C=C(\C)[C@@H](O)[C@@H](OC)C(=O)[C@H](C)C[C@H](C)/C=C/C=C/C=C/1C; result = 106%
SMILES = COc1ccc(OC)c2c(=S)c3ccccc3[nH]c12; result = 93.1%
SMILES = COc1cc2ncnc(Nc3ccc(Oc4ccccc4)cc3)c2cc1OC; result = 96.9%
SMILES = NCCNc1ncc(C(N)=O)c(Nc2cccc(C(F)(F)F)c2)n1; result = 52.7%
SMILES = Oc1ccc(-c2nc(-c3ccncc3)c(-c3ccc(F)cc3)[nH]2)cc1; result = 98.7%
SMILES = COc1ccc(CNC(=O)Nc2ncc([N+](=O)[O-])s2)cc1; result = 108%
SMILES = N#CC(C#N)=C(N)/C(C#N)=C/c1ccc(O)cc1; result = 91.3%
SMILES = Nc1[nH]nc2nc3ccccc3nc12; result = 94%
SMILES = Cc1cccc(-c2[nH]c(C(C)(C)C)nc2-c2ccc3c(c2)OCO3)n1; result = 106%

Series 2 — observed: cell-free assay; method: competition with immobilised ligand; concentration: 1 µM; quantity: remaining binding
SMILES: O=C(NC[C@@H]1[C@H]2CN(C(=O)OCc3cc(C(F)(F)F)cc(C(F)(F)F)c3)C[C@@H]12)c1ccc2[nH]nnc2c1
target = HIPK4 (Homo sapiens, UniProt Q8NE63); result = 100%
target = GRK1 (Homo sapiens, UniProt Q15835); result = 90%
target = PIK3CA (Homo sapiens, UniProt P42336, I800L); result = 83%
target = FLT3 (Homo sapiens, UniProt P36888, F691L/ITD); result = 88%
target = PIK3C2G (Homo sapiens, UniProt O75747); result = 100%
target = Ribosomal protein S6 kinase alpha-6, N-terminal kinase domain (RPS6KA6, Homo sapiens, UniProt Q9UK32); result = 67%
target = KIT (Homo sapiens, UniProt P10721, V559D); result = 88%
target = WNK1 (Homo sapiens, UniProt Q9H4A3); result = 90%

Series 3 — method: protein binding microarray; molecule type: double-stranded DNA, one strand shown; medium: in vitro; concentration: not given; relative to: not given; reading: higher = stronger binding; quantity: E-score
Target: Histone acetyltransferase KAT6A, winged helix 1, GST fusion (KAT6A, Homo sapiens, UniProt Q92794, residues 1-85)
Setting: 8-mer, flanks averaged, mean of 2 arrays, mostly near background
Target sequence (chain): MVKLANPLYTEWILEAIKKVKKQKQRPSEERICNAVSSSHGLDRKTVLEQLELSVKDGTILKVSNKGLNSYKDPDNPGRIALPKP
Strand = CAGTGTTA; result = 0.0038
Strand = ACTGTGAT; result = -0.138
Strand = GAAATGAC; result = -0.0619
Strand = CAATCTCG; result = -0.176
Strand = ATCATTGA; result = -0.00583
Strand = GTTTCATA; result = 0.0196
Strand = TGAGTTAA; result = -0.103
Strand = GGATAAGA; result = 0.00175

Series 4 — method: RNAcompete; molecule type: RNA; medium: in vitro; concentration: 20 nM; setting: 7-mer, probes averaged, single round; relative to: mean of 7-mers; reading: higher = stronger binding; quantity: 7-mer Z-score
Target: PABPC1L2, full length, GST fusion (mouse, UniProt A0ABA7IW68)
Target sequence (chain): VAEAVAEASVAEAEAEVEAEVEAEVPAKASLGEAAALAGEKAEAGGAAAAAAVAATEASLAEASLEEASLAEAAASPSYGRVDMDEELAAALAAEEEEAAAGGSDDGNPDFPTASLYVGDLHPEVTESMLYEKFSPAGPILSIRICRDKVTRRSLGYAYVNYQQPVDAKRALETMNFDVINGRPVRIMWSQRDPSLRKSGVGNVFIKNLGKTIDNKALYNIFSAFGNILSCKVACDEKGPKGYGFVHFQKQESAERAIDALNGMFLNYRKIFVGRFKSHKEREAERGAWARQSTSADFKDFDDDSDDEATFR
Strand = CGGAUGU; result = -0.13
Strand = ACUCUUG; result = -0.394
Strand = UAUCCUC; result = -0.383
Strand = CGUGAGG; result = -0.34
Strand = GCUCUUG; result = -0.322
Strand = AUGCGGC; result = -0.0246
Strand = AACCGCU; result = -0.177
Strand = GCGGCGG; result = 0.0696

For quick reference, copied from above (series 2):
target = FLT3 (Homo sapiens, UniProt P36888, F691L/ITD); result = 88%
target = PIK3C2G (Homo sapiens, UniProt O75747); result = 100%
target = Ribosomal protein S6 kinase alpha-6, N-terminal kinase domain (RPS6KA6, Homo sapiens, UniProt Q9UK32); result = 67%
target = KIT (Homo sapiens, UniProt P10721, V559D); result = 88%
